Results from different studies.
Each line is one published result; not all experiments were run side by side. Values joined by “and” are separate records of one study, mostly repeats; a detail may differ. Numbers after ± are the reported error.
Sequence of UniProt Q8BLF1 (whole entry, looked up): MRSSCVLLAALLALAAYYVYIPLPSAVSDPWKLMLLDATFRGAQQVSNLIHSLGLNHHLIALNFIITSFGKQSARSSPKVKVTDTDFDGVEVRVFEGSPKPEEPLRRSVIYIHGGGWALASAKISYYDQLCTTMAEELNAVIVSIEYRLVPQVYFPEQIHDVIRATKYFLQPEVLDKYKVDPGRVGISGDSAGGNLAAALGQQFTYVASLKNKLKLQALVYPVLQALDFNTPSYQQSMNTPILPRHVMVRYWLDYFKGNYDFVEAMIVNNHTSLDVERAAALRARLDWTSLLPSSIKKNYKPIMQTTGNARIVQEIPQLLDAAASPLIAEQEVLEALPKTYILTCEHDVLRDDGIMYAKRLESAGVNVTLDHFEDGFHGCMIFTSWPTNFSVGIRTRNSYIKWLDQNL
Sequence of UniProt Q9ULW8 (whole entry, looked up): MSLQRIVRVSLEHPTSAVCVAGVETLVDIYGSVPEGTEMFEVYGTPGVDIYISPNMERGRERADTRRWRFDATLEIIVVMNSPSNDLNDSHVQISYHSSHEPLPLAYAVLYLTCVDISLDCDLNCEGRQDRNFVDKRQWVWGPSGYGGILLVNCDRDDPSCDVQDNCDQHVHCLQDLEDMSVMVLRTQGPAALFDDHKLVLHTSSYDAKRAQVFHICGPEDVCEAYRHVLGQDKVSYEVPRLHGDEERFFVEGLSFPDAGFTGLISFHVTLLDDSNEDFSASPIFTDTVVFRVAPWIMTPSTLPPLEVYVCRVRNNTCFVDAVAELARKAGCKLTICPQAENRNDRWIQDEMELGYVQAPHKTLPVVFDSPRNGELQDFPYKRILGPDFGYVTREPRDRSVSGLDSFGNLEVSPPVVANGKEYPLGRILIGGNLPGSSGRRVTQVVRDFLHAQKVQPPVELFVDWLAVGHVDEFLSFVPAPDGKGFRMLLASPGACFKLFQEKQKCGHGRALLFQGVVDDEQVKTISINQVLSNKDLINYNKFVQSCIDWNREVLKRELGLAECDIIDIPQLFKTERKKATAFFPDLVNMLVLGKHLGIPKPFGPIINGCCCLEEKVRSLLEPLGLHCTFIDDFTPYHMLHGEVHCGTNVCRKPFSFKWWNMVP
Sequence of UniProt Q9UH17 (whole entry, looked up): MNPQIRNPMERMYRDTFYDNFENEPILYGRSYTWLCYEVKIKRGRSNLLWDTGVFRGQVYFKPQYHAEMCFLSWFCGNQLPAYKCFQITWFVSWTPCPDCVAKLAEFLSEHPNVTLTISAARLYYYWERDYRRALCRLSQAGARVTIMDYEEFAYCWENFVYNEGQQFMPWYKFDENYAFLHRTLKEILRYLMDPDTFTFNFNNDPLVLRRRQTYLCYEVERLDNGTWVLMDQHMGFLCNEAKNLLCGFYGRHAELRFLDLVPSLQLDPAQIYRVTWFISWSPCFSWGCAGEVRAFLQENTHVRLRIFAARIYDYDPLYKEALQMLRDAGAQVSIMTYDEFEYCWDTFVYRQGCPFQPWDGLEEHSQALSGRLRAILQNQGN
Sequence of UniProt P30530 (whole entry, looked up): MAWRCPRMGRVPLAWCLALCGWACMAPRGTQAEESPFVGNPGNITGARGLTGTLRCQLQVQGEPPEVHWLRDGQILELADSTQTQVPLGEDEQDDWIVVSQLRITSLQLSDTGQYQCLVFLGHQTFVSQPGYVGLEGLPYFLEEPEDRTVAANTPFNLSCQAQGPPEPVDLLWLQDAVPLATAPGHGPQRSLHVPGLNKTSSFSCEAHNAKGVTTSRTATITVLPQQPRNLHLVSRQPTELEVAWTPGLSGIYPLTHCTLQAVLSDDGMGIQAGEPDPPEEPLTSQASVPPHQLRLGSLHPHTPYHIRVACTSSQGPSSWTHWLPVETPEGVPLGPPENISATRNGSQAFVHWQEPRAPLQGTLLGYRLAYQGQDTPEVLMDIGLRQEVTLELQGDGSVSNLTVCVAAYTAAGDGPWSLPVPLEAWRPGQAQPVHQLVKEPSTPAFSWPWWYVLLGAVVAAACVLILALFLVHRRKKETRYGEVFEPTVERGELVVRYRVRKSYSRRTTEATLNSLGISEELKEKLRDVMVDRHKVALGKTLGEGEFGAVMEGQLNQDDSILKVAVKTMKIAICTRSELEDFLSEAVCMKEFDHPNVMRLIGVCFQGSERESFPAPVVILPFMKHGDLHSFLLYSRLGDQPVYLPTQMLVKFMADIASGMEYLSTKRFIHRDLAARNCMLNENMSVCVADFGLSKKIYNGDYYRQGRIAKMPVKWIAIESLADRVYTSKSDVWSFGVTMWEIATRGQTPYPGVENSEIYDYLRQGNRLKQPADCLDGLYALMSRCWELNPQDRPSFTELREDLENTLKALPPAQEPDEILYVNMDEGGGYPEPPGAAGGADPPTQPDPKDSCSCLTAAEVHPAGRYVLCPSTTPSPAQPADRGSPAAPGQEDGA
Sequence of UniProt P33533 (whole entry, looked up): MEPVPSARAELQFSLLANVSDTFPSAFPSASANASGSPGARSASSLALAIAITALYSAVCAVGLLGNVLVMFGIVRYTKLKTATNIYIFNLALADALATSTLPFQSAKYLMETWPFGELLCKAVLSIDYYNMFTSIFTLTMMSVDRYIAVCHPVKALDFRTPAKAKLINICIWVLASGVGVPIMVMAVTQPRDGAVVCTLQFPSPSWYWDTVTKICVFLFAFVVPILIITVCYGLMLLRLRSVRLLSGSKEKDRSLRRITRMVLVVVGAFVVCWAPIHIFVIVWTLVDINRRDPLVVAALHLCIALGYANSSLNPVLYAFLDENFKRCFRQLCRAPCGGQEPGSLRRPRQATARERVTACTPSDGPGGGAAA
Sequence of UniProt P21554 (whole entry, unmodified, looked up): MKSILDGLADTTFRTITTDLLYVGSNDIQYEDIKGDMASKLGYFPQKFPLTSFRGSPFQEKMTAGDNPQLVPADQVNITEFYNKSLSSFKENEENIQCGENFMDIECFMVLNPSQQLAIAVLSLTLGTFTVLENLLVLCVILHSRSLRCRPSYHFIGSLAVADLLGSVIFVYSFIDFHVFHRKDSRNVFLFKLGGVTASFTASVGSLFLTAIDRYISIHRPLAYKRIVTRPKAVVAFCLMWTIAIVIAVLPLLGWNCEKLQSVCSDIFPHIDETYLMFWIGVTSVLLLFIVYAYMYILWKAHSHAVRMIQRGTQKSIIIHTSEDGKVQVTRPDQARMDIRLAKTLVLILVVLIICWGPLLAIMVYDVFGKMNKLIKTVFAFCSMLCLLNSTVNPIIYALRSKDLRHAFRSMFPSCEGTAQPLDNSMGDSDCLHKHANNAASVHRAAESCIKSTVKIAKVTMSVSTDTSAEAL
Sequence of UniProt P51617 (whole entry, looked up): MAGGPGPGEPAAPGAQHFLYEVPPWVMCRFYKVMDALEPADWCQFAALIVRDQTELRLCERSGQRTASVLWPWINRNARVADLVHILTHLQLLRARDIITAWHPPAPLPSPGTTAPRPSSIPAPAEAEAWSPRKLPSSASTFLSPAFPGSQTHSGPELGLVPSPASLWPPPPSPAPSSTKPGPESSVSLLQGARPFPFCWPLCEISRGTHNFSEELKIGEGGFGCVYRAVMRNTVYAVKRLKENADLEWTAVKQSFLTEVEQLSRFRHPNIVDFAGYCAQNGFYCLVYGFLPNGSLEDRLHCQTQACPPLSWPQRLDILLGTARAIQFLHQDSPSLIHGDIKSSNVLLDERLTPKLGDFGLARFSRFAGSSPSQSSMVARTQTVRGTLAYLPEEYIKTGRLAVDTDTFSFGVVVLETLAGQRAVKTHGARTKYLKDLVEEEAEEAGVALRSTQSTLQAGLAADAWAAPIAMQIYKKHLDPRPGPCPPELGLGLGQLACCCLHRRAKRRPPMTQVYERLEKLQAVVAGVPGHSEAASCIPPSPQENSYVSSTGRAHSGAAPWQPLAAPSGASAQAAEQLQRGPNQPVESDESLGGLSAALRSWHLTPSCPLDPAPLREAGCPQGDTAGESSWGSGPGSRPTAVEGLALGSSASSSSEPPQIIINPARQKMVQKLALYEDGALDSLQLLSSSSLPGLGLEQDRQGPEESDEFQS

SMILES | target or system | test | test system | setting | how to read | measurement | value
COc1ccc(NC(=O)c2ccc3[nH]c(-c4ccc(N(C)C)cc4)nc3c2)cn1 | Mapk1 (Rattus norvegicus, UniProt P63086) | proximity ligation | HeLa, ERK2 and MYD88 transfected | concentration not given | reference: DMSO | ERK2-MYD88 proximity | 0.667 fold per cell and 0.0882 fold per cell and 0.608 fold per cell
CCCC[C@H]1CNCCN1C[C@@H]1CCCN1C[C@H](CC1CCCCC1)N1CCN(CCc2ccc(Cl)c(Cl)c2)[C@H]([C@H](C)CC)C1 | Oprd1 (Rattus norvegicus, UniProt P33533) | radioligand binding | rat brain membranes | 500 nM, pH 7.5, 25 °C, with: 2 nM [3H]DPDPE |  | remaining binding | 94.5%
CC(C)CC(O)(CC(C)C)c1cn(C(=O)N2CCCC2)nn1 | Neutral cholesterol ester hydrolase 1 (Mus musculus, UniProt Q8BLF1) | probe labelling, inhibitor, competitive ABPP-SILAC, item: Aadacl1 | mouse T cells | concentration not given, 4 h, single peptide | reference: treated over DMSO cells, lower = stronger inhibition | SILAC activity ratio | 1.25 and 1.43 and 1.3 and 1.23 and 1.02 and 1.33
N[C@@H](Cc1ccccc1)P(=O)(O)O | Phenylalanine/tyrosine ammonia-lyase (PAL, Rhodotorula toruloides, UniProt P11544) | inhibitor |  | 200 µM, with: L-Phe 5 mM |  | reaction rate reduction | 30%
CN(C)[C@H]1C[C@@]23CC[C@@]4(O2)C(=CC[C@]2(C)[C@@H](c5ccc6ccncc6c5)CC[C@H]24)C=C3[C@@H](O)[C@@H]1O | FES (Homo sapiens, UniProt P07332) | ATP probe labelling, inhibitor, KiNativ profiling |  | 0.1 µM |  | inhibition | -5.6%
CC(C)(C)C(=O)OCOP(=O)(OCOC(=O)C(C)(C)C)C1CCCN(O)C1=O (stereo not drawn) | HT-29 |  |  |  |  | TGI | 8.53 µM
C=CC(=O)Nc1cc(-c2ccc(C(=O)N3CCCC(O)(CC)C3)cc2)ccc1F (stereo not drawn) | DNA dC->dU-editing enzyme APOBEC-3B, C-terminal domain (Homo sapiens, UniProt Q9UH17) | covalent adduct, intact protein MS |  | 5 h, 1-fold, 25 µM |  | adducted protein | 0%
Cc1ccc2c(C(C[N+](=O)[O-])c3cccs3)c(-c3ccccc3)[nH]c2c1 (stereo not drawn) | CNR1 (Homo sapiens, UniProt P21554, Y397F) | β-arrestin recruitment, agonist, luciferase |  |  |  | Emax | 26.4%
O=C1NC(=O)c2c1c1cc(F)c[n+]3c1c1c2c2cc(O)ccc2[n]1[Ru-4]312([N]=C=S)[S+]3CC[S+]1CC[S+]2CC3 (stereo not drawn) | AXL (Homo sapiens, UniProt P30530) | enzyme activity |  | 100 nM, human enzyme, with: 10 µM ATP | reference: untreated | remaining activity | 63%
COc1ccccc1-c1n[nH]c2nc(N[C@H]3CC[C@H](NS(=O)(=O)CC(C)C)CC3)ncc12 | cdc2-related kinase 12 (Leishmania donovani, UniProt A0A3S7WQK2) | kinobead competition pull-down | Leishmania donovani, cell extract | 0.4 µM | reference: vehicle | remaining binding | 13%
N[C@H](C(=O)N1CCCC1)C1CCN(c2nccc3c(-c4ncc(Cl)cc4Cl)cccc23)CC1 | PADI3 (Homo sapiens, UniProt Q9ULW8) | enzyme activity |  | 0.03932 µM, with: Ca2+ 0.25 mM |  | kcat | 0.0892 s⁻¹ and 0.0823 s⁻¹
CC[C@H](C)[C@H](NC(=O)[C@H](CO)NC(=O)[C@H](Cc1ccc(O)cc1)NC(=O)[C@H](Cc1ccc(O)cc1)NC(=O)[C@H](CC(N)=O)NC(=O)CNC(=O)[C@H](CO)NC(=O)[C@H](Cc1ccc(O)cc1)NC(=O)[C@H](CO)NC(=O)[C@H](CO)NC(=O)[C@H](CC(N)=O)NC(=O)COCCOCCNC(=O)CN1CCN(CC(=O)O)CCN(CC(=O)O)CCN(CC(=O)O)CC1)C(=O)N[C@@H](CC(C)C)C(N)=O [copper-64 labelled] |  | dynamic PET | tamoxifen-induced PDAC mouse model, metastases | 12.5 min, CLDN4-expressing tumours |  | maximum metastasis uptake | 19.1 %IA/cc
Cc1cc(Oc2nc(N3CC[C@@H](c4ccncc4)C3)ncc2F)[nH]n1 | Mycobacterium tuberculosis |  | THP-1, H37Rv non-replicating | 0.9489 µM, day 4 |  | normalised growth | 5.66% and 9.43%
O=C1NC2(CC2)COc2ncc(F)cc2[C@H]2COCCN2c2ccn3ncc1c3n2 |  |  | Sprague-Dawley rat, male, blood | oral, 5 mg/kg/day, end of treatment, 4-week repeated-dose toxicity | reference: red blood cells | reticulocytes | 1.45 ± 0.51%
CS(C)(=O)=Nc1ccc(-c2ccc(-c3nc4cc(O[C@@H]5CO[C@H]6[C@@H]5OC[C@H]6O)[nH]c4cc3F)cc2)cc1 | ROCK1 (Homo sapiens, UniProt Q13464) | enzyme activity, inhibitor |  | 10 µM |  | inhibition | -23%
CC(C)[C@H]1NC(=O)C[C@H]2/C=C/CCSSC[C@@H](NC1=O)C(=O)N[C@H](Cc1cccc3ccccc13)C(=O)NCC(=O)O2 | IRAK1 (Homo sapiens, UniProt P51617) | enzyme activity, inhibitor |  | 10 µM |  | inhibition | -2.8%
Nc1ccc(/C=C/C(=O)N2CCc3c(oc4c(-c5ccc(F)cc5)cc(-c5ccc(C(=O)N6CCC(F)(F)CC6)cn5)cc34)C2)cn1 | KIT (Homo sapiens, UniProt P10721) | binding, competition with immobilised ligand |  | 1 µM |  | remaining binding | 100%
CCCc1cc2cc(-n3nc(C(F)(F)F)c4c3CC(C)(C)CC4=O)cc(N3CCC(O)CC3)c2c(=O)[nH]1 | HSP90AB1 (Homo sapiens, UniProt P08238) | fluorescence polarization |  |  | reference: apparent KD Hsp90α over apparent KD HSP90AB1 | selectivity ratio | > 100 fold

A few entries again:
SMILES | target or system | test | test system | setting | how to read | measurement | value
CN(C)[C@H]1C[C@@]23CC[C@@]4(O2)C(=CC[C@]2(C)[C@@H](c5ccc6ccncc6c5)CC[C@H]24)C=C3[C@@H](O)[C@@H]1O | FES (Homo sapiens, UniProt P07332) | ATP probe labelling, inhibitor, KiNativ profiling |  | 0.1 µM |  | inhibition | -5.6%
CC(C)(C)C(=O)OCOP(=O)(OCOC(=O)C(C)(C)C)C1CCCN(O)C1=O (stereo not drawn) | HT-29 |  |  |  |  | TGI | 8.53 µM
